Assay results collected from several papers.
A part holds a random share of what one study measured.
UniProt O14578, sequence (whole entry, looked up): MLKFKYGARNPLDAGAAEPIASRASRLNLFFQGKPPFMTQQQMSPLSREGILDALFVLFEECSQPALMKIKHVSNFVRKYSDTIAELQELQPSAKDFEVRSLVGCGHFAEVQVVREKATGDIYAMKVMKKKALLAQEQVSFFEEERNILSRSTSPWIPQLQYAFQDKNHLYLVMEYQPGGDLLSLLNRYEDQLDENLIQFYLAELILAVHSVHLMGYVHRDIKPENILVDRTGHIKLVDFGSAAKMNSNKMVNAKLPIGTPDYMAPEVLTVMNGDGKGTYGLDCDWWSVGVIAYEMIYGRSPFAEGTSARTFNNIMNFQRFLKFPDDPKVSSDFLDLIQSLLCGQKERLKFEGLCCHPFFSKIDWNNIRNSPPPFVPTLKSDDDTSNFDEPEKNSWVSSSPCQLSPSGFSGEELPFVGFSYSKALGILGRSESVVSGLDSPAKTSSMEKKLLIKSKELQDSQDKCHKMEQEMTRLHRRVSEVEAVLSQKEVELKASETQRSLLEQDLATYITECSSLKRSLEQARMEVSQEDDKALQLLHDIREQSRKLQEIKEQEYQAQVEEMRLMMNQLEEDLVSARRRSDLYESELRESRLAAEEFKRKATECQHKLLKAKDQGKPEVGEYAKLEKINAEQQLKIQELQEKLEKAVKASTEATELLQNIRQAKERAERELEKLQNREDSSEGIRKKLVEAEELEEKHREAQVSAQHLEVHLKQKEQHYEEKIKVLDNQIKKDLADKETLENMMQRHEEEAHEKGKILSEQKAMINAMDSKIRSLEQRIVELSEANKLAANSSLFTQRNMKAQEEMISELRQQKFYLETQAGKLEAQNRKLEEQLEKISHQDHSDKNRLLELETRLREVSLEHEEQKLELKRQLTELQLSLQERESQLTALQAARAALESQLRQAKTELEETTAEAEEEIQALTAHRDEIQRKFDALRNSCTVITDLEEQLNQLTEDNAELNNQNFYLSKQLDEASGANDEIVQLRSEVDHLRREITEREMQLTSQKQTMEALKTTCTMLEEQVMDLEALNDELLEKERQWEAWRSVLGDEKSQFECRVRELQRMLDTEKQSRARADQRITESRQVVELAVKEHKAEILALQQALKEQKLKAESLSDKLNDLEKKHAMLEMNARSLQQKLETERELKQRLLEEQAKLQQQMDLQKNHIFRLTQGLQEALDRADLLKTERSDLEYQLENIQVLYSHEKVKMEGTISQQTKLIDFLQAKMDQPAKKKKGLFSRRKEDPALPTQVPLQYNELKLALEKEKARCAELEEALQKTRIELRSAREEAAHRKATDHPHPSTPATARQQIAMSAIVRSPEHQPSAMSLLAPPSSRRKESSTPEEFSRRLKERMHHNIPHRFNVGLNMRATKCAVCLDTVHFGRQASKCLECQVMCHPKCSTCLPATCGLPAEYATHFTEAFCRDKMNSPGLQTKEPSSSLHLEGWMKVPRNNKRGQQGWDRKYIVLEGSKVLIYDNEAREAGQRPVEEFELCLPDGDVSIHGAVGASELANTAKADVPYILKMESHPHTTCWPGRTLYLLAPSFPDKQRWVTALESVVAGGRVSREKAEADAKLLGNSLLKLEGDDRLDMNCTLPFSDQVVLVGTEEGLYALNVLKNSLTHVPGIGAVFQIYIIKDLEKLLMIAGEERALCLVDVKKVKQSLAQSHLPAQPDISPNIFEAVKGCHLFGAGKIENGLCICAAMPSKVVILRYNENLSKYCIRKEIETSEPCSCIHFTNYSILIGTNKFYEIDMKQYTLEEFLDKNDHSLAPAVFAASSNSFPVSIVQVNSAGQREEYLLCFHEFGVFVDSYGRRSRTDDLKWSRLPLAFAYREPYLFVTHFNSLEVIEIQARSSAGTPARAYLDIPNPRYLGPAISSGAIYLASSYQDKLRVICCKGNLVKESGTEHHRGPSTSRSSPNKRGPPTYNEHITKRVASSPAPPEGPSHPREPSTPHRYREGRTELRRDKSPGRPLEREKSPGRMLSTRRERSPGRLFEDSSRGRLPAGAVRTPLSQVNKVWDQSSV
UniProt O00750, sequence (whole entry, looked up): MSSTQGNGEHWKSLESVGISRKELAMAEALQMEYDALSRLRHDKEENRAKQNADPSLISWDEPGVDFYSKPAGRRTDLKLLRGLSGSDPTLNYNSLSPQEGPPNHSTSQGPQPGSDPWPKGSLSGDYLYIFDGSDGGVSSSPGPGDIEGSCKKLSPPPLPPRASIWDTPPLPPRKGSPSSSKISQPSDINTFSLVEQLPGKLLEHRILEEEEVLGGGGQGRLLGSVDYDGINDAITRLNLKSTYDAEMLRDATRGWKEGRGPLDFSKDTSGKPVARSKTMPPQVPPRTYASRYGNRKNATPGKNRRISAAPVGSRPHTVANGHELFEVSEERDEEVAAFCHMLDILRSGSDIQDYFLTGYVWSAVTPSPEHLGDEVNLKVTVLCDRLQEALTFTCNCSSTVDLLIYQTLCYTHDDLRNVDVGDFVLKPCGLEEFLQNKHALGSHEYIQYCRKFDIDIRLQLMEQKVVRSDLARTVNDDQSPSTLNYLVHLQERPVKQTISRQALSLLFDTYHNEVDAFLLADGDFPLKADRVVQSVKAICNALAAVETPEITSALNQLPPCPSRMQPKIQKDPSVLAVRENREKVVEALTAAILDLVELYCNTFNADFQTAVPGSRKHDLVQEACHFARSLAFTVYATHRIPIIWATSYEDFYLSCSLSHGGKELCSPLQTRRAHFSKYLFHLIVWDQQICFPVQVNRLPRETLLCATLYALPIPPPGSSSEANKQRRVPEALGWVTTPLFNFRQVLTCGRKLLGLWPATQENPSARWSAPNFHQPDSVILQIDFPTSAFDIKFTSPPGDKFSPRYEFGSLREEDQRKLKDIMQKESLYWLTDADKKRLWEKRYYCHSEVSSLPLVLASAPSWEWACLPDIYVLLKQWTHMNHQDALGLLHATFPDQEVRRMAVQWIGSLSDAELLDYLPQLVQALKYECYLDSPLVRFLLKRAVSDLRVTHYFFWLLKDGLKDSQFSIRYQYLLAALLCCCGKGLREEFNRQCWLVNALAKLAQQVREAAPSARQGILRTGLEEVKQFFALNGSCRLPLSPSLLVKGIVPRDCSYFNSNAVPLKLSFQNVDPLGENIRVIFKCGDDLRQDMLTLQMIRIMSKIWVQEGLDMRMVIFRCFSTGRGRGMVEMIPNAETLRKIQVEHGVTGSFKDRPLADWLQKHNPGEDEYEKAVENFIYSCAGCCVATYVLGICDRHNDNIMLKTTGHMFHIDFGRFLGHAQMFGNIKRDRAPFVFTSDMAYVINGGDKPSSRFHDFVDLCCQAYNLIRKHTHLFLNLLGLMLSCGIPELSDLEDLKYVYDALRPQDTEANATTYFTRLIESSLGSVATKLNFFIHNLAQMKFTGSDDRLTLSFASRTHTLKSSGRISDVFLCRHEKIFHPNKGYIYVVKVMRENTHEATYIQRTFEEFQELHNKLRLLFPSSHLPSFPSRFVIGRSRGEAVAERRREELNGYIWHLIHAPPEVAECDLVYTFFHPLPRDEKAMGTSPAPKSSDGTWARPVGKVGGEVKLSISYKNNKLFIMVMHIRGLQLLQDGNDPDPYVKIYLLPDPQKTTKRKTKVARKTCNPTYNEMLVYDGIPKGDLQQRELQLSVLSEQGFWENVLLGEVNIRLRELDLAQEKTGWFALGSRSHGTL
UniProt P53778, sequence (whole entry, looked up): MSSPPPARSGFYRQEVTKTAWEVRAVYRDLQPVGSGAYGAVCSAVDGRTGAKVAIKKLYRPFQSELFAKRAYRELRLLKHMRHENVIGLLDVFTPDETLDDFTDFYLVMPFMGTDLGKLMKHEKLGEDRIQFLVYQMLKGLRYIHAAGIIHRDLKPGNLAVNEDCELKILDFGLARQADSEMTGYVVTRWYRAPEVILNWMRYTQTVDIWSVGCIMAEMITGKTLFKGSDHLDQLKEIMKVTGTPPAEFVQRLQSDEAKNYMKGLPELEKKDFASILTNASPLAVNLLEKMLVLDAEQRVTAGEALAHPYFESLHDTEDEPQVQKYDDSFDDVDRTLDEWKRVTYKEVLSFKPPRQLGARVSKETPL
UniProt P0C264, sequence (whole entry, looked up): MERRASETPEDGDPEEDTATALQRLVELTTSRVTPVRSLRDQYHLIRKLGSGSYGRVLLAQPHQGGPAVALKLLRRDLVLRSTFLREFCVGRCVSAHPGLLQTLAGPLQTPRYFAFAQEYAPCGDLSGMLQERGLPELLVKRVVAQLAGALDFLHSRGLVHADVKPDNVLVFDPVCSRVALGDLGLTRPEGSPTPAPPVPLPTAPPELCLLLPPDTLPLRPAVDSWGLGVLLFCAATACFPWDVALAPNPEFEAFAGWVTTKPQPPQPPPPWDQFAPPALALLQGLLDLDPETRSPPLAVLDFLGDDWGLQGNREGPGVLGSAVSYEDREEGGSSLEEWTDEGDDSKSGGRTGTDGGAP
UniProt Q15349, sequence (whole entry, looked up): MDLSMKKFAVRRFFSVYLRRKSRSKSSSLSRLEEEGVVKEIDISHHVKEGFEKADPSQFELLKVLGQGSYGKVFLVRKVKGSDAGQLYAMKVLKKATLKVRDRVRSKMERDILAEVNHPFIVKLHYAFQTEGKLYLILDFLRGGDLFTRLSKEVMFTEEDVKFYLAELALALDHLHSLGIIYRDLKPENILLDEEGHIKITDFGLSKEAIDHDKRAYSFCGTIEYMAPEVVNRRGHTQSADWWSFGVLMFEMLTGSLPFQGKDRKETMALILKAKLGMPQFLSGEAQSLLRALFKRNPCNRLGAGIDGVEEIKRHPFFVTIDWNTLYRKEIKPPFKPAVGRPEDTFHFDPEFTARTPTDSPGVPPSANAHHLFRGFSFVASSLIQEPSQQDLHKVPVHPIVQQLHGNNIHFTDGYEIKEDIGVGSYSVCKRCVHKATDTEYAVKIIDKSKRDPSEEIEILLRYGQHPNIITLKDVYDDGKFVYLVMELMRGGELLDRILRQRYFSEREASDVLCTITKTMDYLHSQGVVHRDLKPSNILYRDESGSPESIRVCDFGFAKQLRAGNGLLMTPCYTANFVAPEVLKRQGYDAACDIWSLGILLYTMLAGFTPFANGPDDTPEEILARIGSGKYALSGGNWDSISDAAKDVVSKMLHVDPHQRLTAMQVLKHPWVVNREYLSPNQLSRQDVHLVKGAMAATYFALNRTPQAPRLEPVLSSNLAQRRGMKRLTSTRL

Series 1 — species: mouse; sample: microsomes or S9; concentration: 2 µM; time: 0.5 h
`Cc1nnsc1C(=O)Nc1onc2c1CSC2` has a remaining compound of 1.52%.
For `Cc1ccc(-n2ccnc2S(=O)(=O)Cc2noc(C)n2)c(C)c1`, the remaining compound was 0.0743%.
`COC(=O)CCN1C(=O)c2ccncc2/C1=C\c1ccccc1` has a remaining compound of 0.0278%.
The remaining compound of `c1ccc(CN2CCc3nc(N4CCCC4)nc(N4CCn5cnnc5C4)c3C2)cc1` is reported as 11.8%.
With `c1ccc(-n2nnnc2Oc2ccc(-c3nc4ccccc4s3)cc2)cc1` the remaining compound was 97.1%.
`CC(=O)Nc1nc2ccc(-c3nn(C(C)C)c4nc(N)ncc34)cc2s1` has a remaining compound of 73.7%.
`CCCNC(C)C(=O)Nc1c(C)csc1C(=O)O` (stereo not shown) gave a remaining compound of 86.2%.
With `CCn1nc(C)c(S(=O)(=O)N(C)Cc2nn(C)c(Cl)c2Cl)c1C` the remaining compound was 51.9%.

Series 2 — cell line: A-375; concentration: 100 µM; time: 18 h
`CN(C)CCc1c[nH]c2ccc(CS(=O)(=O)N3CCCC3)cc12` has a viability of 95.2%.
For `Cc1c(Cl)cccc1Nc1ccccc1C(=O)O`, the viability was 85.4%.
`C=CC[C@@H]1/C=C(\C)C[C@H](C)C[C@H](OC)[C@H]2O[C@@](O)(C(=O)C(=O)N3CCCC[C@H]3C(=O)O[C@H](/C(C)=C/[C@@H]3CC[C@@H](O)[C@H](OC)C3)[C@H](C)[C@@H](O)CC1=O)[C@H](C)C[C@@H]2OC` gave a viability of 12.1%.
The viability of `C[C@H](CCC(=O)NCCS(=O)(=O)O)[C@H]1CC[C@H]2[C@@H]3[C@@H](O)C[C@@H]4C[C@H](O)CC[C@]4(C)[C@H]3CC[C@]12C` is reported as 95.9%.
The viability of `CC(C)(Sc1cc(C(C)(C)C)c(O)c(C(C)(C)C)c1)Sc1cc(C(C)(C)C)c(O)c(C(C)(C)C)c1` is reported as 100%.
`CC1=C(C)C(=O)C(C(CCCCCC(=O)O)c2ccccc2)=C(C)C1=O` (stereo not shown) has a viability of 93.4%.
`NS(=O)(=O)c1cc2c(cc1C(F)(F)F)NC(Cc1ccccc1)NS2(=O)=O` (stereo not shown) gave a viability of 74.1%.

Series 3 — observed: cell-free assay; method: competition with immobilised ligand; concentration: 1 µM
Compound: Cc1cc(-n2nc(Cc3cc(F)cc(C(F)(F)F)c3)nc2C)ccc1C(N)=O
The remaining binding was 100% (TNK2 (Homo sapiens, UniProt Q07912)).
The remaining binding was 87% (PIK3C2B (Homo sapiens, UniProt O00750)).
The remaining binding was 81% (MET (Homo sapiens, UniProt P08581)).
For EPHB1 (Homo sapiens, UniProt P54762): remaining binding read 97%.
For YES1 (Homo sapiens, UniProt P07947): remaining binding read 100%.
The remaining binding was 70% (PIKFYVE (Homo sapiens, UniProt Q9Y2I7)).
For SBK3 (Homo sapiens, UniProt P0C264): remaining binding read 91%.
It gave 78% for remaining binding (PIK3CA (Homo sapiens, UniProt P42336, H1047Y)).
For Ribosomal protein S6 kinase alpha-2, C-terminal kinase domain (RPS6KA2, Homo sapiens, UniProt Q15349): remaining binding read 100%.
The remaining binding was 95% (CIT (Homo sapiens, UniProt O14578)).
The remaining binding was 100% (EGFR (Homo sapiens, UniProt P00533, G719S)).
It gave 100% for remaining binding (ROCK1 (Homo sapiens, UniProt Q13464)).
It gave 100% for remaining binding (MYLK (Homo sapiens, UniProt Q15746)).
The remaining binding was 95% (Ribosomal protein S6 kinase alpha-3, N-terminal kinase domain (RPS6KA3, Homo sapiens, UniProt P51812)).

Series 4 — observed: enzyme activity; action: inhibitor; concentration: 0.5 µM; relative to: control
Compound: COc1cc2ncnc(Nc3ccc(OCc4ccccc4)cc3)c2cc1OC
The remaining activity was 109% (MAP2K6 (Homo sapiens, UniProt P52564)).
MKNK2 (Homo sapiens, UniProt Q9HBH9) — remaining activity: 88.1%.
The remaining activity was 119% (IRAK4 (Homo sapiens, UniProt Q9NWZ3)).
It gave 102% for remaining activity (MAPK12 (Homo sapiens, UniProt P53778)).
For PLK2 (Homo sapiens, UniProt Q9NYY3): remaining activity read 109%.
It gave 86.9% for remaining activity (NEK4 (Homo sapiens, UniProt P51957)).
For Cyclin-dependent kinase 9, with cyclin T1 (CDK9, Homo sapiens, UniProt P50750): remaining activity read 94.5%.
For KIT (Homo sapiens, UniProt P10721): remaining activity read 63%.
